Assay results of several laboratories.
A part holds a random share of what one study measured.

Set 1 — method: RNA Bind-n-Seq; molecule type: RNA; matrix: in vitro; tested at: 100 nM; baseline: input RNA pool; direction: higher = stronger binding
Target: RING finger protein unkempt homolog, zinc fingers 1-6, SBP tag (UNK, Homo sapiens, UniProt Q9C0B0, residues 30-357)
Sequence of UniProt Q9C0B0 (30-357, looked up): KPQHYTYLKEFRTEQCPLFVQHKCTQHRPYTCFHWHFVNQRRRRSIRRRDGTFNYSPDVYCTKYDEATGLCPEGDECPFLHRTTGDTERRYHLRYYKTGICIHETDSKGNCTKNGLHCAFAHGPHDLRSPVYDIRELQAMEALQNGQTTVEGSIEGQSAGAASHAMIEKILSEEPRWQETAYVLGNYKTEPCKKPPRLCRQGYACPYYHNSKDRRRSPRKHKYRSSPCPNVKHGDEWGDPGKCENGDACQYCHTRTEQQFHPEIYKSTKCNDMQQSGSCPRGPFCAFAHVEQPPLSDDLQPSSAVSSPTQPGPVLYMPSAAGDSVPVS
Setting: RNA with constant flanks, vertebrate orthologous sites, ends assumed
All sequences stand within: GGGAGUUCUACAGUCCGACGAUC … CAACAGAGGAUUGAGCAUCA
For `CCUGCCCGUUUACCCCUAAAAUAGGACUCUCUUAGAAUUGUGUUGCCACUUGUAAAAUCUUAGCAAUAUUACAAUAUAACACACCAAUGAAACAAAAUUUACUCAUUAUUUUGCAAACCA`, the bound/input enrichment was 1.94 ratio.
For `GCAAUGCAAAAGCAUCCCUUCUCCCAACCCCCUUUUCACUAGGAGAUACAAACGUUACUGUAGAAGAGCAAUUAAACUCAAUAAAUUUAUCUUUUCAGGAUGAUCCAGACUCCAGUACCA`, the bound/input enrichment was 1.03 ratio.
`AGCAAAUCCAAUCACUGUGAUAUUUAAAAUAUGCACAGUCCUAAUCUUUCUCAAUGAUCCUAGUAUUUUUCUAGCUGUAUCUUUGUAUCUCAUACUGUUAUUUAUCAGUUUUGUUCCCCU` has a bound/input enrichment of 0.615 ratio.
With `AGCCAUUUUUUUCCACGUUUUCUGUAAAUAAUGGAUAAUCGUUUUUAAAAAUUUUAUUUUUAGUGCUGUUUUAGCAAUGUGGAUAGAUCAUAAAUGUACUUGCUGAAUUCAAUUAUUUUU` the bound/input enrichment was 0.423 ratio.
`GCAUAUGCCGCUAUCACCAAAAGCAAACUACCACUUUUCAAAUUUCAUUCAGAGCCAUUUUAGUGUUUCCUAUUCCCUACCUUUCCCACUAUUUUCAAUGAUGAAAUAUCCUUUUUCCUU` gave a bound/input enrichment of 2.14 ratio.
For `CAAGCUCAUUAAGAGAAGCAGUUUUUAAACUGUAUUUAUUUAUGUUUGUAAACUUGUACAUAGUAACAACCCUGCAAAUGUUUUGUUACUCUAUUUUACAUCUUUUAGGUUCUUUGGGGG`, the bound/input enrichment was 0.631 ratio.

Set 2 — method: RNA Bind-n-Seq; molecule type: RNA; matrix: in vitro; tested at: 20 nM; setting: 6-mer, flanks averaged, single round; together with: 150 mM KCl; baseline: input library; direction: higher = stronger binding
Target: TAR DNA-binding protein 43, full length, His tag (TARDBP, Homo sapiens, UniProt Q13148, residues 1-414)
`ACUCGU` — result for “6-mer enrichment (R)”: 0.575.
Under “6-mer enrichment (R)”, `CCGGCA` is recorded as 0.871.
For `GUAAGC`, “6-mer enrichment (R)” read 0.846.
Under “6-mer enrichment (R)”, `AGUUGU` is recorded as 0.783.
Under “6-mer enrichment (R)”, `GGAAGG` is recorded as 4.36.
Under “6-mer enrichment (R)”, `AGCGAG` is recorded as 1.6.

Set 3 — method: RNA Bind-n-Seq; molecule type: RNA; matrix: in vitro; tested at: 365 nM; baseline: no-protein control; direction: higher = stronger binding
Target: RNA binding protein fox-1 homolog 2, RRM domain, GST-SBP tag (RBFOX2, Homo sapiens, UniProt O43251-10, residues 100-194)
Setting: natural RNA segment, single round, ends assumed
All sequences stand within: GGGAGUUCUACAGUCCGACGAUC … UGGAAUUCUCGGGUGCCAA
Target sequence (chain): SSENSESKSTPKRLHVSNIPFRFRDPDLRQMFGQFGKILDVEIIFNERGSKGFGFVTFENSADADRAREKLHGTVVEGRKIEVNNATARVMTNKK
`GGGUCAUGUAAAAUAUUAGACACUAAUAUUUUCAUAGAAAUUAGGCUGGAGAAAGAAGGAAGAAAUGGUUUUCUUAAAUACCUACAAAAAAGUUACUGUGGUAUCUAUGA`: “RBNS enrichment (R)” 0.42.
Under “RBNS enrichment (R)”, `ACAGGUCUCAGUAUUAGCUUGUAUUACUGUACUAUCGAGUCCAUACACGGCUCUCUAAAGCCCUACAGAGGGUUCAUGUGUUUAGACCUGAGAAAUCAGGACAUGGAAAU` is recorded as 1.49.
For `UUUGCUUUGGCUAUUUUUUGUUGUAACCUCUUGAUGUAACAGCACUUUAAAAGGGCGACAACUGACUCACGAGAUGGCAACCACCUGGAGCCUGUUUGGGGAGACCACCC`, “RBNS enrichment (R)” read 0.379.
`AGGGGGCAGAGACCACAGGAGAGGUUCUUGCCUGCAUCCUCCCAUGAGGGUGUGGCCAGUUCCCUGGUUCUGUGCCAUGCUGCUGCUUGGUGGCAUUGGUUAGGAAUGGG`: “RBNS enrichment (R)” 0.724.
Under “RBNS enrichment (R)”, `AAGUAGGGUGGGGAAGUGUGGAGGAGGUGACUGGCCUGCCUCAAAUGCAUGUUUUGAGAUGUUUGACCACUUCAGCAACUACGUCAGUGGCUUCAGGAUCGGGUGUACUG` is recorded as 44.1.
`AAUAUAUUUUAAAUCAUUUUAUUAAGAGAAAAAGUAAGCCAUUGAACUCUUGAGACUGCAUUGUCUUAUAUUCUGUAAGUUCAGAAAUGUAAGUGAAAAAGCCGUGACCA` — result for “RBNS enrichment (R)”: 0.348.

Single results of other studies
`PhoQ, residues 284 288 289 292 302 303 SNSSNI` gave a fold induction of 0.89 (PhoP, residues 12 14 15 18 19 NQAHL (Escherichia coli, UniProt P23836); Sort-seq, measured: YFP reporter; E. coli; PhoQ-PhoP variant library, together with: 10 µM Mg2+; baseline: high Mg2+ state, higher = stronger signaling).

Some of these lines once more (set 2):
For `GUAAGC`, “6-mer enrichment (R)” read 0.846.
Under “6-mer enrichment (R)”, `GGAAGG` is recorded as 4.36.
